Assay results of several laboratories.
Compare with care: the assays were run in different laboratories.
Cell line: HCT-15

Structure (SMILES) | test | system | setting | scale | measurement | result
CCn1cc(-c2cc(Cn3ccnc3)cc3c2CCN([C@H](c2cc(OC)ccn2)C2CC2)C3=O)c(C(F)(F)F)n1 | cell growth, inhibitor |  | 120 h |  | EC50 | 7.69 µM
CCCN1CCN(c2ccc3nc(-c4ccc5nc(-c6cc(OC)ccc6OC)[nH]c5c4)[nH]c3c2)CC1 | SRB |  | 10 µM, 48 h |  | growth percent | 62.1%
Cc1n[nH]c2nc(-c3ccc(Cl)cc3)c3c(NC(=O)c4ccccc4)nnc-3n12 | SRB |  | 10 µM, NCI60 single-dose screen, colon cancer | reference: untreated | cell growth | 90.8%
Cn1cncc1C1=CN(c2ncnc3[nH]cnc23)CCS1 |  |  | colon cancer |  | GI50 | 10 µM
CCCN1CCN(c2ccc3[nH]c(-c4ccc5[nH]c(-c6cc(OC)c(OC)c(OC)c6)nc5c4)nc3c2)CC1 | SRB |  | 10 µM, 48 h |  | growth percent | 99.5%
O=c1ccn(Cc2cn(-c3cc4ccccc4oc3=O)nn2)c(=O)[nH]1 | NCI60 single-dose screen |  | 10 µM |  | growth percentage | 109%
Cc1cc(C)n(-c2nc(-c3ccc(Cl)cc3)c3c(NC(=O)c4ccccc4)nnc-3[nH]2)n1 | SRB |  | 10 µM, NCI60 single-dose screen, colon cancer | reference: untreated | cell growth | 96%
O=c1ccn(Cc2cn(-c3c4ccccc4nc4ccccc34)nn2)c(=O)[nH]1 | NCI60 single-dose screen |  | 10 µM |  | growth percentage | 91.5%
S=C([S][Au-][P+](CCCCCC[P+]([Au-][S]C(=S)n1cccn1)(c1ccccc1)c1ccccc1)(c1ccccc1)c1ccccc1)n1cccn1 | cell growth, NCI-60 screen |  | colon cancer |  | log10 TGI | > -4
O=C(Nc1nnc2n3c(=S)[nH][nH]c3nc(-c3ccc(Cl)cc3)c1-2)c1ccccc1 | SRB |  | 10 µM, NCI60 single-dose screen, colon cancer | reference: untreated | cell growth | 95.7%
O=C1NC(c2ccccc2)(c2ccccc2)C(=O)N1Cc1cn(-c2c3ccccc3nc3ccccc23)nn1 | NCI60 single-dose screen |  | 10 µM |  | growth percentage | 59.9%
CN1CCN(c2ccc3[nH]c(-c4ccc5[nH]c(-c6ccc(C(F)(F)F)cc6)nc5c4)nc3c2)CC1 | SRB |  | 10 µM, 48 h |  | growth percent | 80.4%
Cc1cc(=O)[nH]n1-c1nc(-c2ccc(Cl)cc2)c2c(NC(=O)c3ccccc3)nnc-2[nH]1 | SRB |  | 10 µM, NCI60 single-dose screen, colon cancer | reference: untreated | cell growth | 81.2%
C#C[C@@]1(O)[C@@H](CO)O[C@@H](n2cc(Cl)c3c(N)ncnc32)[C@@H]1O | SRB |  | NCI-60 screen |  | TGI | > 100 µM
CCCN1CCN(c2ccc3[nH]c(-c4ccc5[nH]c(-c6ccc(OCC)c(OCC)c6)nc5c4)nc3c2)CC1 | SRB |  | 10 µM, 48 h |  | growth percent | 5.97%
COc1cnc2cccc(N3CCc4c(cc(Cn5ccnc5C)cc4-c4cn(C)nc4C(F)(F)F)C3=O)c2c1 | cell growth, inhibitor |  | 120 h |  | EC50 | 5.88 µM
CCN(CC)c1ccc(C=NNC(=O)CSc2nc3ccccc3c(=O)n2Cc2ccc(S(N)(=O)=O)cc2)c(O)c1 | NCI five-dose screen |  |  |  | TGI | > 100 µM
CCCCN1CCN(c2ccc3nc(-c4ccc5nc(-c6cc(OC)ccc6OC)[nH]c5c4)[nH]c3c2)CC1 | SRB |  | 10 µM, 48 h |  | growth percent | 81.7%
C#C[C@@]1(O)[C@@H](CO)O[C@@H](n2cc(Br)c3c(N)ncnc32)[C@@H]1O | SRB |  | NCI-60 screen |  | TGI | > 100 µM
O=C1NC(=NCc2cccs2)S/C1=C\c1ccc2ncccc2c1 | MTS | colon cancer |  |  | IC50 | 3.84 µM
CCOc1ccc(-c2nc3cc(-c4nc5cc(N6CCN(C)CC6)ccc5[nH]4)ccc3[nH]2)cc1OCC | SRB |  | 10 µM, 48 h |  | growth percent | 63.7%
Cc1cc(-c2ccccc2)n(-c2nc(-c3ccc(Cl)cc3)c3c(NC(=O)c4ccccc4)nnc-3[nH]2)n1 | SRB |  | 10 µM, NCI60 single-dose screen, colon cancer | reference: untreated | cell growth | 89.8%

For quick reference, copied from above:
Structure (SMILES) | test | system | setting | scale | measurement | result
CCCN1CCN(c2ccc3[nH]c(-c4ccc5[nH]c(-c6cc(OC)c(OC)c(OC)c6)nc5c4)nc3c2)CC1 | SRB |  | 10 µM, 48 h |  | growth percent | 99.5%
O=c1ccn(Cc2cn(-c3cc4ccccc4oc3=O)nn2)c(=O)[nH]1 | NCI60 single-dose screen |  | 10 µM |  | growth percentage | 109%
